Measured values of several laboratories.
Each line is one published result; not all experiments were run side by side. pEC50, pIC50: −log10 of the molar value. In brackets after ≈: the same amount, converted by molar mass.
Organism: Plasmodium falciparum

Structure (SMILES)	test	system	conditions	scale	endpoint	result
Clc1ccc2c(Nc3ccc(N4CCN(Cc5ccccc5)CC4)cc3)ccnc2c1	parasite growth, SYBR Green	DD2	72 h, drug-resistant strain, blood stage		pIC50	7.59
CC1CCN(Cc2ccc(/C=C/C(=O)c3ccc(Cl)cc3)cc2O)CC1	parasite growth	3D7	72 h, blood stage		pEC50	4.56
COc1ccc(C(=O)/C=C/c2ccc(O)c(CN3CCN(c4ccnc5cc(Cl)ccc45)CC3)c2)c(OC)c1	parasite growth	DD2	drug-resistant strain, blood stage		pIC50	6.22 to 6.52
CS(=O)(=O)c1ccc(-c2cnc(N)c(-c3ccc(C(F)(F)F)nc3)c2)cc1		SCID mice, blood			EC90	0.16 µg/mL (≈ 0.407 µM)
CCN(CC)CCCC(C)Nc1ccnc2cc(Cl)ccc12 (stereo not drawn)	[3H]hypoxanthine incorporation	3D7	10 µM, 96 h		growth inhibition	~100%
O=C1c2cc([N+](=O)[O-])ccc2-n2c1nc1cc(Cl)ccc1c2=O		stage II gametocytes, NF54	IC50, 2 d, counted at day 7	baseline: DMSO	mature gametocyte reduction	40 to 50%
CC(C)n1nc(-c2ccc3oc(N)nc3c2)c2c(N)ncnc21	parasite growth, inhibitor		2 µM, 48 h, gametocyte		inhibition	97%
Clc1ccc2c(Nc3ccc(C4CCNCC4)cc3)ccnc2c1	parasite growth, SYBR Green	D6	72 h, blood stage		pIC50	8.05
CCN(CC)CCCC(C)Nc1ccnc2cc(Cl)ccc12 (stereo not drawn)	parasite growth	3D7			pIC50	< 4.92
CCN1CCC(c2ccc(Nc3ccnc4cc(Cl)ccc34)cc2)CC1	parasite growth, SYBR Green	D6	72 h, blood stage		pIC50	8.30
CCCOC(=O)C1=C(C)NC2=C(C(=O)CC(c3ccc(OC)c(OC)c3)C2)C1c1ccccc1F (stereo not drawn)	female gamete formation, item: Pfs25	stage V gametocytes	24 h, compound carried over		pIC50	< 4.70
CC(C)CN1CCN(c2ccc(Nc3ccnc4cc(Cl)ccc34)cc2)CC1	parasite growth, SYBR Green	D6	72 h, blood stage		pIC50	8.10
C[C@H]1[C@@H](OC[C@@H](O)[C@@H](O)CO[C@H]2O[C@@H]3O[C@@]4(C)CC[C@H]5[C@H](C)CC[C@@H]([C@H]2C)[C@@]35OO4)O[C@@H]2O[C@@]3(C)CC[C@H]4[C@H](C)CC[C@@H]1[C@@]24OO3	parasite growth	D6	72 h, blood stage		pIC50	> 8.00
CCN1CCN(c2ccc(Nc3ccnc4cc(Cl)ccc34)cc2)CC1	parasite growth, SYBR Green	DD2	72 h, drug-resistant strain, blood stage		pIC50	7.59
CCOC(=O)C1=C(C)NC2=C(C(=O)CC(c3ccc(OC)c(OC)c3)C2)C1c1ccccc1Cl (stereo not drawn)	female gamete formation, item: Pfs25	stage V gametocytes	24 h, compound carried over		pIC50	< 4.70

For quick reference, copied from above:
Structure (SMILES)	test	system	conditions	scale	endpoint	result
CC(C)CN1CCN(c2ccc(Nc3ccnc4cc(Cl)ccc34)cc2)CC1	parasite growth, SYBR Green	D6	72 h, blood stage		pIC50	8.10
CS(=O)(=O)c1ccc(-c2cnc(N)c(-c3ccc(C(F)(F)F)nc3)c2)cc1		SCID mice, blood			EC90	0.16 µg/mL (≈ 0.407 µM)
